Measurements gathered from unrelated publications.
Each numbered part is a random draw from the data of one study; scales do not carry over between parts.
Chain of UniProt O96017 (whole entry, looked up): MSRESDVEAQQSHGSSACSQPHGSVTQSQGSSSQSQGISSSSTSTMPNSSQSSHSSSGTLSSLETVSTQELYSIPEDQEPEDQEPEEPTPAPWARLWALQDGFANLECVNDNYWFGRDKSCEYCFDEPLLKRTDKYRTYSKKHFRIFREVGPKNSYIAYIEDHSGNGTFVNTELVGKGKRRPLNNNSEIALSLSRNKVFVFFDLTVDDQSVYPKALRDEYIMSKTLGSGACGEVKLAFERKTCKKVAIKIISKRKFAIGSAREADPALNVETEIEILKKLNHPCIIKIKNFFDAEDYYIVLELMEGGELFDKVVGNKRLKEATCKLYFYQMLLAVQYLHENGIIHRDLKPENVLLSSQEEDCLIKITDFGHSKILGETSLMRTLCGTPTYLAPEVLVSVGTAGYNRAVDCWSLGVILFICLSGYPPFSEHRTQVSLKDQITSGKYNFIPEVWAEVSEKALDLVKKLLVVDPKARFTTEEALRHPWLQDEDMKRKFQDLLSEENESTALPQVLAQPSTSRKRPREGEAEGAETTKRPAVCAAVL
Chain of UniProt Q6ZWH5 (whole entry, looked up): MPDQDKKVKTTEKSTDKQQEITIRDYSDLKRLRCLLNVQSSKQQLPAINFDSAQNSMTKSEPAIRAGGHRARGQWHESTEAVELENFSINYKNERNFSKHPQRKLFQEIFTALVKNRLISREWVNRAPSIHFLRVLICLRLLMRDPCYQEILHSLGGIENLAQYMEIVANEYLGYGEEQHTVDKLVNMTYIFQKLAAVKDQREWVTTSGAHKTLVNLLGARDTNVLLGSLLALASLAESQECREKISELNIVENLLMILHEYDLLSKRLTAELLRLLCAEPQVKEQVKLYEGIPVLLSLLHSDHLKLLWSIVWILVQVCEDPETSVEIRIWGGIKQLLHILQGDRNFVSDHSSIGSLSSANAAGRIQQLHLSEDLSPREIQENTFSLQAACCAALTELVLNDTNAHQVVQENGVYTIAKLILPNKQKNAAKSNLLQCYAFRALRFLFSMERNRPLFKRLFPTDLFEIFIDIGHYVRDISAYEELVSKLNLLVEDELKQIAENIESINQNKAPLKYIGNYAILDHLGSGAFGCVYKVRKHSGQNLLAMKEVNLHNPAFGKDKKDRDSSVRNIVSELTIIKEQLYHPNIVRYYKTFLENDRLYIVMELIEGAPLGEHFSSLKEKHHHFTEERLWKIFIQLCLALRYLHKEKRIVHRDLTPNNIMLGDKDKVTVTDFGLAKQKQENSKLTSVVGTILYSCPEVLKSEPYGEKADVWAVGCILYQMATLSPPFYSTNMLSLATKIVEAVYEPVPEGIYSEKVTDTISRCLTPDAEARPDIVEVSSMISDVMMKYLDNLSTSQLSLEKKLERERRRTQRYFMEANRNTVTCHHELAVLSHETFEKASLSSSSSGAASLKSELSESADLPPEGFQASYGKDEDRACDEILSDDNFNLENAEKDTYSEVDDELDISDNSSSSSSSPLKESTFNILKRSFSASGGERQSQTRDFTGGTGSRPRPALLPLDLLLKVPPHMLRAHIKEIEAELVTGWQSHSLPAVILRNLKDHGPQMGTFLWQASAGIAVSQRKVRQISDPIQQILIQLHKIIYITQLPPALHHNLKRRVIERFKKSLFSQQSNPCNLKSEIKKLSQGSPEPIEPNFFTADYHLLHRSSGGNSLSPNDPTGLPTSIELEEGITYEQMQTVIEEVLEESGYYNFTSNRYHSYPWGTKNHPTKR
Chain of UniProt Q9UK32 (whole entry, looked up): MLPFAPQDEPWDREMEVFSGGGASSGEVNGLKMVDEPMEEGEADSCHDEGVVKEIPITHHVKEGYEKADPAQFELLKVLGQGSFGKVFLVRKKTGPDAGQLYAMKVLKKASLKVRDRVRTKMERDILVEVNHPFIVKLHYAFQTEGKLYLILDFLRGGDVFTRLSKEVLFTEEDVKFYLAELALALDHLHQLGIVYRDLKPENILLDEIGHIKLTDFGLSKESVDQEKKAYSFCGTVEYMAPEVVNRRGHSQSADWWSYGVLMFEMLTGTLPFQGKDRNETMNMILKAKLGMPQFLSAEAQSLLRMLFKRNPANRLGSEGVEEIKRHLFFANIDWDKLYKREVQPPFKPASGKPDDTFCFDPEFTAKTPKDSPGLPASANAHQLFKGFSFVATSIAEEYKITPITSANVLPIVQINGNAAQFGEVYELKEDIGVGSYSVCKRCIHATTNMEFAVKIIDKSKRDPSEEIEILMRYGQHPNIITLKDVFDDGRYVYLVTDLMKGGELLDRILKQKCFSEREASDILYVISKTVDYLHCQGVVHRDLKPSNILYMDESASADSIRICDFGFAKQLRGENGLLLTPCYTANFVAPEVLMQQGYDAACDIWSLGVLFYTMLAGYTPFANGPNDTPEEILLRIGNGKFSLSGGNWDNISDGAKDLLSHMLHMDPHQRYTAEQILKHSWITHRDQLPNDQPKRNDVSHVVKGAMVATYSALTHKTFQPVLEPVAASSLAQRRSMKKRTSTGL
Chain of UniProt Q00535 (whole entry, looked up): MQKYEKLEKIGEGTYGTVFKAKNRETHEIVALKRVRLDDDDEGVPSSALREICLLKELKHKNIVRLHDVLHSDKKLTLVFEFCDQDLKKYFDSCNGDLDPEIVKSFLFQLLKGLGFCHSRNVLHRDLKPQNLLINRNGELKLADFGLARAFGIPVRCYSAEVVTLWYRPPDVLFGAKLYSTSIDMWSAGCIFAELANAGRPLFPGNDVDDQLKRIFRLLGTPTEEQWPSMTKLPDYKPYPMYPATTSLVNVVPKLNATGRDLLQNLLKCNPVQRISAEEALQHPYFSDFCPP
Chain of UniProt Q13237 (whole entry, looked up): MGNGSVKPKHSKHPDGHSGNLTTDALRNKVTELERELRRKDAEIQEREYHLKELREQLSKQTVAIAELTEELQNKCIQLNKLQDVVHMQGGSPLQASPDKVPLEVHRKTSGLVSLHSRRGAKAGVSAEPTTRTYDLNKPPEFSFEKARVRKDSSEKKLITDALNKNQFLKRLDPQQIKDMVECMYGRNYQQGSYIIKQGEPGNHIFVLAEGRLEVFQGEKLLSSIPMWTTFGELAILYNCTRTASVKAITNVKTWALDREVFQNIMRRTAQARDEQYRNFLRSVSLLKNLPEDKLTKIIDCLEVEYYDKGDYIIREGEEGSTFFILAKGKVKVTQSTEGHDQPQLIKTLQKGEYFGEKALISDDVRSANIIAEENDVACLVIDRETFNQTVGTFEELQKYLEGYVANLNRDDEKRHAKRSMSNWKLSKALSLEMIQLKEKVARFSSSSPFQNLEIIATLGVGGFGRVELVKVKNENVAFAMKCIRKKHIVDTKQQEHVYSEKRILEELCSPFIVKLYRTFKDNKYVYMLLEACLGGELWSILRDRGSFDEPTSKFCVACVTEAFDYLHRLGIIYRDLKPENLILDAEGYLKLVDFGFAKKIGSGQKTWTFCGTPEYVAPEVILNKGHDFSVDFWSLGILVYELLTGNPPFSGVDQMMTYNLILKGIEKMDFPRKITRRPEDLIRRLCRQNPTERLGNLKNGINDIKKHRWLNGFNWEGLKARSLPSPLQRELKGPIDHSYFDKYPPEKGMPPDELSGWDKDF
Chain of UniProt P37173 (whole entry, looked up): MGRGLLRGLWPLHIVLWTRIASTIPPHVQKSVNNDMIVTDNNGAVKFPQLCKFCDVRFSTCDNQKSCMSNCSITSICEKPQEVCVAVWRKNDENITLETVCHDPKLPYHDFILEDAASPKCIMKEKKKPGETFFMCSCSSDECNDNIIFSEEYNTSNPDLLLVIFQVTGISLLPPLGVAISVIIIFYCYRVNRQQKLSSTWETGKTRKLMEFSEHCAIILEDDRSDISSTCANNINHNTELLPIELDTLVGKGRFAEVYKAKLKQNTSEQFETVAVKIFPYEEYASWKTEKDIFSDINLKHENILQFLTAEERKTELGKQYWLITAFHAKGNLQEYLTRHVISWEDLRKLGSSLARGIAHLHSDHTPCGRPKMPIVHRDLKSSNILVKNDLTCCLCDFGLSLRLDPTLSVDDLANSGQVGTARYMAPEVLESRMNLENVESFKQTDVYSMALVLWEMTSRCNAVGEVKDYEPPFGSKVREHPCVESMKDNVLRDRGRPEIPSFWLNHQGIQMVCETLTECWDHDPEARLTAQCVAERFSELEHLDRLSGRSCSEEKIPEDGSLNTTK
Chain of UniProt Q6XUX3 (whole entry, looked up): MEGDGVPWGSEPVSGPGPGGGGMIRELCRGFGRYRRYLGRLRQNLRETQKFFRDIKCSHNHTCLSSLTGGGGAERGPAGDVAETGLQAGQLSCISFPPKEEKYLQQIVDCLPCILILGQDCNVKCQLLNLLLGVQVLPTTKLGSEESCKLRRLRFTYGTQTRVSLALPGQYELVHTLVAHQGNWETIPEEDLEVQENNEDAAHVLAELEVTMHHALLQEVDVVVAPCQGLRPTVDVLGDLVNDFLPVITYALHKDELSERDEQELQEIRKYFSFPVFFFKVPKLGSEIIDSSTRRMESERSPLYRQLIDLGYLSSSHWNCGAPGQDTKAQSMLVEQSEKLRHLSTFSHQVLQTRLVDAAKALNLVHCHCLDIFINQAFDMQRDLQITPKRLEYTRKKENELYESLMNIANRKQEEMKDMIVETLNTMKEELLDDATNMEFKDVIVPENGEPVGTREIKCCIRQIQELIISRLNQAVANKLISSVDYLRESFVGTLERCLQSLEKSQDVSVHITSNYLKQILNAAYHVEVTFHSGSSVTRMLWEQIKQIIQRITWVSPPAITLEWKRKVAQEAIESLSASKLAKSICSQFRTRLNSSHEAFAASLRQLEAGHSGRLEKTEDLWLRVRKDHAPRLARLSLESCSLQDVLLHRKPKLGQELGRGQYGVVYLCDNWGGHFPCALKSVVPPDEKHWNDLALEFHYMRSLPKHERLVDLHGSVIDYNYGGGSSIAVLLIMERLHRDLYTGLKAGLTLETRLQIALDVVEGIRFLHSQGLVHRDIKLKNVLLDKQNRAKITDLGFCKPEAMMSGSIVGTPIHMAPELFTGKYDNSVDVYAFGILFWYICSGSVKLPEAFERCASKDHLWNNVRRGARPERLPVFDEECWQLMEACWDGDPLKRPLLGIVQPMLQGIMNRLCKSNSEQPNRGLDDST

Study 1 — technique: competition with immobilised ligand; concentration: 1 µM
Compound: O=C(O)[C@@H]1[C@@H](Cn2nnc3ccccc3c2=O)CC[C@H]1C(=O)c1ccc(OCCC2CCOCC2)cc1
target | read-out | remaining binding [%]
PIP4K2C (Homo sapiens, UniProt Q8TBX8) | cell-free assay | 89
MAP3K19 (Homo sapiens, UniProt Q56UN5) | cell-free assay | 84
HASPIN (Homo sapiens, UniProt Q8TF76) | cell-free assay | 88
ITK (Homo sapiens, UniProt Q08881) | cell-free assay | 87
Non-receptor tyrosine-protein kinase TYK2, JH2 (TYK2, Homo sapiens, UniProt P29597) | cell-free assay | 100
FLT3 (Homo sapiens, UniProt P36888, K663Q) | cell-free assay | 100
ALK (Homo sapiens, UniProt Q9UM73, L1196M) | cell-free assay | 93
DSTYK (Homo sapiens, UniProt Q6XUX3) | cell-free assay | 84
PRKG2 (Homo sapiens, UniProt Q13237) | cell-free assay | 100
EIF2AK1 (Homo sapiens, UniProt Q9BQI3) | cell-free assay | 100
HIPK4 (Homo sapiens, UniProt Q8NE63) | cell-free assay | 100
MERTK (Homo sapiens, UniProt Q12866) | cell-free assay | 100
Myosin-IIIb (MYO3B, Homo sapiens, UniProt Q8WXR4) | binding | 90
Ribosomal protein S6 kinase alpha-6, C-terminal kinase domain (RPS6KA6, Homo sapiens, UniProt Q9UK32) | cell-free assay | 100
NEK10 (Homo sapiens, UniProt Q6ZWH5) | cell-free assay | 88
LATS2 (Homo sapiens, UniProt Q9NRM7) | cell-free assay | 100
BMP2K (Homo sapiens, UniProt Q9NSY1) | cell-free assay | 100

Study 2 — read-out: enzyme activity; action: inhibitor; concentration: 0.5 µM; reference: control
Structure (SMILES): CCN(CC)CCNC(=O)c1c(C)[nH]c(/C=C2\C(=O)Nc3ccc(Cl)cc32)c1C
target | remaining activity
Cyclin-dependent kinase 4, with cyclin D1 (CDK4, Homo sapiens, UniProt P11802) | 74.1%
CAMK2D (Homo sapiens, UniProt Q13557) | 7.25%
OXSR1 (Homo sapiens, UniProt O95747) | 80.1%
STK39 (Homo sapiens, UniProt Q9UEW8) | 81.9%
Cyclin-dependent kinase 5, with p25 (CDK5, Homo sapiens, UniProt Q00535) | 95.1%
GRK3 (Homo sapiens, UniProt P35626) | 97.8%
MAPK9 (Homo sapiens, UniProt P45984) | 109%
TGFBR2 (Homo sapiens, UniProt P37173) | 113%
CHEK2 (Homo sapiens, UniProt O96017) | 6.42%
DAPK1 (Homo sapiens, UniProt P53355) | 47.7%
PRKACA (Homo sapiens, UniProt P17612) | 90%

Study 3 — cell line: HaCaT; concentration: 100 µM; time: 36 h
Compound | viability
OC[C@H]1O[C@@H](O[C@@H]2[C@@H](CO)OC(O)(CO)[C@H]2O)[C@H](O)[C@@H](O)[C@H]1O (mixture of isomers) | 95.9%
COc1cc2nccc(Oc3ccc(NC(=O)NC4CC4)c(Cl)c3)c2cc1C(N)=O | 54.6%
O=C(O)CCCNC(=O)c1cccnc1 | 99.9%
Cn1c(=O)c2c(ncn2CC(O)CO)n(C)c1=O (stereo not shown) | 93.8%
COc1cc(NC(C)CCCN)c2ncccc2c1 (stereo not shown) | 6.11%
Cc1cc2c(cc1S(N)(=O)=O)S(=O)(=O)CCC2 | 69.5%
[H]/N=C(/N)N/C(=N/[H])NCCc1ccccc1 | 80.9%
CC1CCc2c(N3CCC(O)CC3)c(F)cc3c(=O)c(C(=O)O)cn1c23 (stereo not shown) | 92.7%
CC(C)NCC(O)c1ccc(O)c(O)c1 (stereo not shown) | 46.4%

Study 4 — species: mouse; sample: microsomes or S9; concentration: 2 µM; time: 0.5 h
Compound | remaining compound
CCCCOC(=O)c1ccc(NC(=O)c2c(OCC)cc(=O)n3c2CCCC3)cc1 | 0.555%
CC(C)C(C)NC(=O)N(C)CC(C)(C)CN1CCOCC1 (stereo not shown) | 0.946%
CCn1nc(-c2nnc3n2CC(C)(C)CC3)c2ccccc2c1=O | 79.4%
O=C(NCCc1ccccc1)N1Cc2c(sc3c2CCCC3)-n2cccc2C1c1cccs1 (stereo not shown) | 6.69%
Cc1ccc(C2CC(=O)Nc3c2c(C)nn3-c2ccc(N3CCCCC3)nn2)cc1C (stereo not shown) | 26.6%
COc1cc(OC)cc(N2CCC(N(C)C(=O)Cc3c(N)nc(C)[nH]c3=O)C2)c1 (stereo not shown) | 71.1%
Cc1nc[nH]c1-c1nccn1[C@H]1CCc2ccccc21 | 14.1%
COc1ccc(-c2csc(/C(C#N)=C3\C=CC=CN3C)n2)cc1 | 0.677%
CC(=O)N1c2ccc(S(=O)(=O)Nc3ccc(C(=O)c4c(C)nc5sccn45)cc3)cc2CC1C (stereo not shown) | 7.12%
Nc1c(Br)cc(Br)cc1C(=O)NC1CCCCC1 | 31.6%
CCOc1cccc(C2c3cccn3-c3sc4c(c3CN2C(=O)NCc2ccc(C)cc2)CCCC4)c1 (stereo not shown) | 5.21%
Cc1ccc2c(c1)ncc1c(-c3ccccc3)nn(-c3cccc(C)c3C)c12 | 80.1%
c1cc2c(ccn2-c2ccc3ccnc(N4CCCC4)c3c2)cn1 | 5.01%
O=C(O)c1cccc(NC(=O)c2cc(S(=O)(=O)Nc3ccc(Br)cc3)ccc2Cl)c1 | 44.1%
Cc1nn(C)cc1Nc1nnc(Cn2nc(C(F)(F)F)c(Cl)c2C)s1 | 29.6%

Repeated from above (study 1):
target | read-out | remaining binding [%]
MERTK (Homo sapiens, UniProt Q12866) | cell-free assay | 100
Myosin-IIIb (MYO3B, Homo sapiens, UniProt Q8WXR4) | binding | 90
Ribosomal protein S6 kinase alpha-6, C-terminal kinase domain (RPS6KA6, Homo sapiens, UniProt Q9UK32) | cell-free assay | 100
NEK10 (Homo sapiens, UniProt Q6ZWH5) | cell-free assay | 88
LATS2 (Homo sapiens, UniProt Q9NRM7) | cell-free assay | 100
